Assay results gathered from unrelated publications.
Parts stem from different laboratories: compare values within a part only.

Study 1
Target: Histone acetyltransferase KAT6A, winged helix 2, GST fusion (KAT6A, Homo sapiens, UniProt Q92794, residues 85-181)
Technique: protein binding microarray
Form: double-stranded DNA, one strand shown
Matrix: in vitro
Concentration: not given
Notes: 8-mer, flanks averaged, mean of 2 arrays, mostly near background
Reference: not given
Reading: higher = stronger binding
Construct (chain): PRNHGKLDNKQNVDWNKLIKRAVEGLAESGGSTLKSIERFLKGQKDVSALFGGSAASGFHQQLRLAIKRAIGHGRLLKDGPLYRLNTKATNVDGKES
Sequence	E-score
GAAAGACA	0.0592
AGCCGACG	0.00834
CATTACAG	-0.126

Study 2
Target: Sal-like protein 4, full length isoform B (SALL4, Homo sapiens, UniProt Q9UJQ4-2, residues 1-616)
Technique: universal PBM
Form: double-stranded DNA, one strand shown
Matrix: in vitro
Concentration: not given
Notes: 8-mer, flanks averaged, mean of replicates
Reading: higher = stronger binding
Sequence	E-score
ACTTCATG	-0.132
GAGTCGCA	-0.101
AGGTAACA	0.179
ATTAATTC	0.316

Study 3
Target: RNA binding protein fox-1 homolog 2, RRM domain, GST-SBP tag (RBFOX2, Homo sapiens, UniProt O43251-10, residues 100-194)
Technique: RNA Bind-n-Seq
Form: RNA
Matrix: in vitro
Concentration: 365 nM
Notes: natural RNA segment, single round, ends assumed
Reference: no-protein control
Reading: higher = stronger binding
Constant ends, left off below: GGGAGUUCUACAGUCCGACGAUC … UGGAAUUCUCGGGUGCCAA
Construct (chain): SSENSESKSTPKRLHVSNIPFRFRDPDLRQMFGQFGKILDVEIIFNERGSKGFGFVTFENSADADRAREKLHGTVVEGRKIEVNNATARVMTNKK
Sequence	RBNS enrichment (R)
GGUCCUGGAUUCUGUGAUGGUAUCAGCACCUGGACGGCCCCAGUCUAGAUUCAGCAAUGAAAAUCCACAAAGAUUCAGGAAAACUUUAGCUACAAAUACCUUAAAAAUGA	0.512
GGCAGAAGAUUCAAAGCAGCUUAAACAGCACUUUUAAAUUAACUCCUAAGCGUUACAUGGUUGUGACUAUGGAAACUCCAGUUAAGACAGGAUCUUAUCAGAGGUGGACA	0.293
UUUAGAUAGUAUGCUCUUGAUUGGAACAAAUUUUCAUUUUUUUAAAAAUCUGCUAAACAUUUGCAAUCUUACAUUUGUAUUUUAAUACCAGAGUGAGGUUUAGCUUUGUC	1.2
CUUCUUGAGACGCCUCUCAAAGCUCUUAAAUGGCUCCUGUGCUAUGUGUGGUGUUGGCAGUCUAAUUUGCUUCUGUUAAAUGUUGUAGAACCUUUUUCACUAGGAAAUAA	0.478
GGAUGGAAAAAGCUGAAGCAAGUGGCUGUUCUCUGAUCAGGCGGGGGAUGCCUCUUUUCCUCGCGAGGCGGCCAUCCUCUCUGGACACUGGCCUCGCCGUCUCUUUCCUC	0.659

Single results of other studies
Substance	target	test	system	conditions	scale	quantity	result
PhoQ, residues 284 288 289 292 302 303 TTCLQL	PhoP, residues 12 14 15 18 19 LYHSL (Escherichia coli, UniProt P23836)	Sort-seq, refers to: YFP reporter	E. coli	PhoQ-PhoP variant library, with: 10 µM Mg2+	reference: high Mg2+ state, higher = stronger signaling	fold induction	3.23
